Measured values of several laboratories.
Numbered parts are unrelated; each lists some results of a single study.

Block 1
Target: RNA binding protein fox-1 homolog 2, RRM domain, GST-SBP tag (RBFOX2, Homo sapiens, UniProt O43251-10, residues 100-194)
Method: RNA Bind-n-Seq
Form: RNA
Medium: in vitro
Tested at: 365 nM
Notes: natural RNA segment, single round, ends assumed
Baseline: no-protein control
Reading: higher = stronger binding
Construct (chain): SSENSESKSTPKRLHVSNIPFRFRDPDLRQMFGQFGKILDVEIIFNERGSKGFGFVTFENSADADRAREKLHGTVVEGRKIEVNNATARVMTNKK
For `GGGAGUUCUACAGUCCGACGAUCGUACUACAUGUUACAUGCUGCAUACUGUAUGUUACACACUGCAUACUAUGUGUUAUACACUGCAUACACAUACUUCCUUUACCCAGAGAAAAGAAAUAAAAUUGAACCAAUGGAAUUCUCGGGUGCCAA`, “RBNS enrichment (R)” read 1.66.
`GGGAGUUCUACAGUCCGACGAUCGUACAUAAUGUACCAUCCCAUGUGGAAUCUGUGAGUGUCCUCUUAAGUAGCGUGGGCUAGCCAAUCUGCCGUUCAUGGUGUAUUGUAAACUCCGAAUUCCAUAUGUAAUAUGGAAUUCUCGGGUGCCAA` — result for “RBNS enrichment (R)”: 0.207.
Under “RBNS enrichment (R)”, `GGGAGUUCUACAGUCCGACGAUCAGUCAGUGGAAGGCGGGGGGGCCCUGGCCUCUGCACCGGGAUCCCAGUGGGAACCUUCAUGCCUUAUUUAUUUCUAAUGGGUAAAGGGGUUUUCUUACCAAGCAUCCCUGUGGAAUUCUCGGGUGCCAA` is recorded as 0.258.
For `GGGAGUUCUACAGUCCGACGAUCGAUAUUUUUGAGCCAUUCUAUUGUGUUCUACUUCACCUAAAAAAAUAAAAUAAAAAUGUUGAUCAAGCAUGGAGUUGAUUUUAUGACCACUAAUGGGUUGUGACCCACAGUGGAAUUCUCGGGUGCCAA`, “RBNS enrichment (R)” read 3.24.

Block 2
Target: Sal-like protein 4, full length isoform A (SALL4, Homo sapiens, UniProt Q9UJQ4, residues 1-1053)
Sequence of UniProt Q9UJQ4 (whole entry, looked up): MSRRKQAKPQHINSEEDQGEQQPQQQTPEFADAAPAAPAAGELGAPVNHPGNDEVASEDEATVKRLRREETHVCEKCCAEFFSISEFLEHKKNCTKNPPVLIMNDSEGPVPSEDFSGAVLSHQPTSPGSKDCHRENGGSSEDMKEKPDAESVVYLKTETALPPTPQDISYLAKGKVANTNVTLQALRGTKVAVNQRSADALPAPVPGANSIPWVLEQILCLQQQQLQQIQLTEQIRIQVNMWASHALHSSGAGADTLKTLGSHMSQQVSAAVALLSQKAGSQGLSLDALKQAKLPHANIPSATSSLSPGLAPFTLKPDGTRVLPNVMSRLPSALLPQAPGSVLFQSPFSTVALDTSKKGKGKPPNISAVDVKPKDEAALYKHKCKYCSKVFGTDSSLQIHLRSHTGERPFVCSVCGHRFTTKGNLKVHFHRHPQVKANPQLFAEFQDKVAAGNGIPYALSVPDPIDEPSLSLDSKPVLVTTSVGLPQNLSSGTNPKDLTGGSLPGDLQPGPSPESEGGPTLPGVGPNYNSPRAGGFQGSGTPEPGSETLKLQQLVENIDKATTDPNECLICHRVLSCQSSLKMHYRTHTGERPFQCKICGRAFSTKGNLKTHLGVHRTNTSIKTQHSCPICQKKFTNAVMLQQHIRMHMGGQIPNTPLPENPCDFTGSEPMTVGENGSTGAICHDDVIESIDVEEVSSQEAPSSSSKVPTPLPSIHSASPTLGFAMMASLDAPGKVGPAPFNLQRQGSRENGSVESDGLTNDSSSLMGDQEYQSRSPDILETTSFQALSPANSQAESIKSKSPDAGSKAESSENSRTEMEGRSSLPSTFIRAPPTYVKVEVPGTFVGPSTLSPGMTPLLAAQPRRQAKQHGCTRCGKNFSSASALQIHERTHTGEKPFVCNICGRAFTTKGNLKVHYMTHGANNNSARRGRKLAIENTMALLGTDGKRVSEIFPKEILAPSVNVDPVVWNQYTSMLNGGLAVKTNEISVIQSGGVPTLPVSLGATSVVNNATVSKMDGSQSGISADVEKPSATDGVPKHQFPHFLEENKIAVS
Method: universal PBM
Form: double-stranded DNA, one strand shown
Medium: in vitro
Tested at: 600 nM
Notes: 8-mer, flanks averaged, mean of replicates
Reading: higher = stronger binding
The E-score of `ACCGCGGT` is reported as -0.247.
`TCGCGGAA` gave an E-score of -0.125.
`GCAGCAGC` has an E-score of -0.214.
The E-score of `CCGACCAG` is reported as -0.311.

Block 3
Target: PABPC1L2, full length, GST fusion (mouse, UniProt A0ABA7IW68)
Method: RNAcompete
Form: RNA
Medium: in vitro
Tested at: 20 nM
Notes: 7-mer, probes averaged, single round
Baseline: mean of 7-mers
Reading: higher = stronger binding
Residues (chain): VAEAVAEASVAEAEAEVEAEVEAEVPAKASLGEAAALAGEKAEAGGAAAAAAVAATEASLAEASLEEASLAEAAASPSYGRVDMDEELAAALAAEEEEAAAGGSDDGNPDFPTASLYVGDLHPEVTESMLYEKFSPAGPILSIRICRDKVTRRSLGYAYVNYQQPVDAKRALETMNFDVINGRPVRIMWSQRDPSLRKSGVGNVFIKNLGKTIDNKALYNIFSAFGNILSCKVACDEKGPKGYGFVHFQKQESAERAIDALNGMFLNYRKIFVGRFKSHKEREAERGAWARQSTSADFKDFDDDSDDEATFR
For `AGGCUUC`, the 7-mer Z-score was -0.255.
The 7-mer Z-score of `CCUAGAG` is reported as 0.0714.
For `CUCUGAU`, the 7-mer Z-score was -0.246.

Single results of other studies
`PhoQ, residues 284 288 289 292 302 303 SLGVVW` has a fold induction of 2.11 (PhoP, residues 12 14 15 18 19 DLLYY (Escherichia coli, UniProt P23836); Sort-seq, measured: YFP reporter; E. coli; PhoQ-PhoP variant library, added: 10 µM Mg2+; baseline: high Mg2+ state, higher = stronger signaling).

A few entries again (block 1):
Under “RBNS enrichment (R)”, `GGGAGUUCUACAGUCCGACGAUCAGUCAGUGGAAGGCGGGGGGGCCCUGGCCUCUGCACCGGGAUCCCAGUGGGAACCUUCAUGCCUUAUUUAUUUCUAAUGGGUAAAGGGGUUUUCUUACCAAGCAUCCCUGUGGAAUUCUCGGGUGCCAA` is recorded as 0.258.
